# Results gathered from unrelated publications.
# Each line is one published result; not all experiments were run side by side. ± gives the spread as reported.
# Cell line: A549
Structure (SMILES),assay,setting,scale,endpoint,value
CC(C)=CCc1c2c(c(O)c3c(=O)c(-c4ccc(O)cc4)coc13)CC(C(C)(C)O)O2 (centres unmarked),"cell growth or viability, MTT",100 µg/mL,,viability,7.44%
CC(C)c1ccc(C(=O)Nc2ccc(CN)cc2)c(O)c1,,48 h,,CC50,> 40 µM
FC(F)(F)c1ccnc(-c2cc(C(F)(F)F)ccn2)c1.FC(F)(F)c1ccnc(-c2cc(C(F)(F)F)ccn2)c1.[Cl-].[Cl-].[Ru+2].c1cnc2c(c1)c1nc[nH]c1c1cccnc12,resazurin,"concentration not given, normoxia, visible light",,photocytotoxicity,inactive
Cc1cccc(-c2cccc(C)n2)n1.[Cl-].[Cl-].[Ru+2].c1ccc(-c2ccccn2)nc1.c1ccc(-c2ccccn2)nc1,resazurin,"72 h, with: 450 nm light, 29.1 J/cm2",reference: dark IC50 over light IC50,phototoxicity index,> 4.4
Cc1cc(N)c2cc(NC(=O)c3ccc4cc(C5CC5)ccc4c3)ccc2n1,"cell growth or viability, MTS",,,CC50,31.4 µM
CCCC1OC2CC3C4CCC5=CC(=O)C=CC5(C)C4C(O)CC3(C)C2(C(=O)COC(=O)CN2CCN(C)CC2)O1 (centres unmarked),MTT,72 h,,IC5,13.35 ± 0.11 nM
CC1(C(=O)O)CCC2(C(=O)O)CCC3(C)C(=CCC4C5(C)CCC(O)C(C)(C)C5CCC43C)C2C1 (centres unmarked),"cell growth or viability, MTT",72 h,,IC50,> 100 µM
CSCc1ccccn1.[Cl-].[Cl-].[Ru+2].c1ccc(-c2ccnc3c2ccc2c(-c4ccccc4)ccnc23)cc1.c1ccc(-c2ccnc3c2ccc2c(-c4ccccc4)ccnc23)cc1,,"24 h, near dark EC50",reference: intracellular over incubation concentration,cellular accumulation ratio,99
CC1(C)CC[C@]2(C(=O)O)CC[C@]3(C)C(=CC[C@@H]4[C@@]5(C)CC[C@H](O)[C@@](C)(C(=O)O)[C@@H]5CC[C@]43C)[C@@H]2C1,"cell growth or viability, MTT",72 h,,IC50,26.5 µM
Cc1ccc2ccc3ccc(C)nc3c2n1.Cc1ccc2ccc3ccc(C)nc3c2n1.Clc1ccc(-c2cc(-c3ccccn3)nn2-c2ccccc2)cc1.[Cl-].[Cl-].[Ru+2],resazurin,"72 h, with: 450 nm light, 29.1 J/cm2",reference: dark IC50 over light IC50,phototoxicity index,2.1
Cc1ncc(COP(=O)(O)O)c(C=NNC(=N)NO)c1O,cell morphology,100 µM,,cytotoxicity,not toxic
COc1ccc(-c2coc3c(CC=C(C)C)c(O)c(CC=C(C)C)c(O)c3c2=O)cc1O,"cell growth or viability, MTT",100 µg/mL,,viability,9.21%
CCCCn1cc(C(=O)O)c(=O)c2cc(F)c3c(nnn3-c3cccc(OC)c3)c21,"cell growth or viability, SRB",,,IC50,164 µM
COc1cc2c(cc1O)[C@]1(O)C(=O)c3c(O)cc4c(c3O[C@@H]1CO2)C=CC(C)(C)O4,"cell growth or viability, MTT",50 µg/mL,,viability,11.4%
CCCCn1cc(C(=O)O)c(=O)c2cc(F)c(Nc3cccc(OC)c3)c([N+](=O)[O-])c21,"cell growth, SRB",72 h,,IC50,34.3 ± 5.26 µg/mL
C=C1CC[C@]2(C(=O)O)CC[C@]3(C)C(=CC[C@@H]4[C@@]5(C)CC[C@H](O)C(C)(C)[C@@H]5CC[C@]43C)[C@@H]2C1,"cell growth or viability, MTT",72 h,,IC50,48.8 µM
CCCCn1cc(C(=O)O)c(=O)c2cc(F)c3c(nnn3-c3ccccc3OC)c21,"cell growth or viability, SRB",,,IC50,133 µM
Cc1ccc(O)c(C=NNC(=N)NO)n1,"cell growth, Coulter counter",2 days,,TC50,401 µM
[Cl-].[Cl-].[Ru+2].c1ccc(-c2ccccn2)nc1.c1ccc(-c2ccccn2)nc1.c1ccc(-c2ccnc3c2ccc2c(-c4ccccc4)ccnc23)cc1,resazurin,"72 h, with: 450 nm light, 29.1 J/cm2",reference: dark IC50 over light IC50,phototoxicity index,28.4
CC(C)(C)c1ccc(O)c(C(=O)Nc2ccc(CN)cc2)c1,,48 h,,CC50,> 40 µM
[Cl-].[Cl-].[Ru+2].c1ccc2nc(-c3ccc4ccccc4n3)ccc2c1.c1cnc2c(c1)ccc1cccnc12.c1cnc2c(c1)ccc1cccnc12,resazurin,"72 h, with: 450 nm light, 29.1 J/cm2",reference: dark IC50 over light IC50,phototoxicity index,7.2
CCCCn1cc(C(=O)O)c(=O)c2cc(F)c(Nc3cc(OC)c(OC)c(OC)c3)c([N+](=O)[O-])c21,"cell growth, SRB",72 h,,IC50,22.1 ± 3.24 µg/mL
COc1ccc2c(O)c(C(=O)Nc3ccc(CN)cc3)ccc2c1,,48 h,,CC50,> 40 µM
CC(C)=CCc1cc(-c2coc3cc(O)c(CC=C(C)C)c(O)c3c2=O)ccc1O,"cell growth or viability, MTT",6.25 µg/mL,,viability,107%
CCCCn1cc(C(=O)O)c(=O)c2cc(F)c3c(nnn3-c3ccc(OC)cc3)c21,"cell growth, SRB",72 h,,IC50,51.4 ± 3.43 µg/mL
Cc1ccc(NC(=O)N/N=C2\CC3(CCN(C)CC3)Oc3ccccc32)cc1,"cell growth, MTT",48 h,,IC50,5.13 ± 0.23 µM

# Some of these lines once more:
Structure (SMILES),assay,setting,scale,endpoint,value
[Cl-].[Cl-].[Ru+2].c1ccc(-c2ccccn2)nc1.c1ccc(-c2ccccn2)nc1.c1ccc(-c2ccnc3c2ccc2c(-c4ccccc4)ccnc23)cc1,resazurin,"72 h, with: 450 nm light, 29.1 J/cm2",reference: dark IC50 over light IC50,phototoxicity index,28.4
CCCCn1cc(C(=O)O)c(=O)c2cc(F)c(Nc3cc(OC)c(OC)c(OC)c3)c([N+](=O)[O-])c21,"cell growth, SRB",72 h,,IC50,22.1 ± 3.24 µg/mL
